Measured values from different studies.
Compare with care: the assays were run in different laboratories.
EGFR: Epidermal growth factor receptor (EGFR, Homo sapiens, UniProt P00533)

COc1cc(OC)c(F)c(/C=C/c2cnc3ccn(S(=O)(=O)c4cn(CCF)cn4)c3n2)c1F — inhibition (EGFR; 100 nM): 0%
C=CC(=O)Nc1cccc(-c2cnc3[nH]cc(C(=O)NC(C)(C)C)c3n2)c1 — inhibition (EGFR; enzyme activity, inhibitor; 0.1 µM): 8%
CN1CC[C@@H](COc2cnc(C#N)cc2-c2ccn3nc(NC(=O)C4CC4)cc3c2)C1 — inhibition (EGFR; enzyme activity, inhibitor; 1 µM): 1%
Cc1cccc(O[C@H]2CCC[C@@H](C(C)CNCc3ccncc3)C2)c1 (relative stereo) — inhibition (EGFR; kinase activity, kinome panel screening; 10 µM): 1%
CCn1cc(C(=O)O)c(=O)c2c(N)c(F)c(NC3CCCCC3)cc21 — inhibition (EGFR; kinase activity; 0.1 µM, together with: ATP at Km): 2.2%
COc1ccc(C(=O)/C=C/c2ccccc2-c2c[nH]c3ccc(C#N)cc23)c(O)c1 — inhibition (EGFR (Homo sapiens, UniProt P00533, L858R/T790M); enzyme activity, inhibitor; 20 µM): 13%
COc1ccc(O)cc1-c1c[nH]c2ncc(-c3cncc(C(=O)N(C)C)c3)cc12 — inhibition (EGFR; binding, competition with immobilised ligand; 0.2 µM): 6.87%
COc1cc(-n2cc3cc(F)cc(C(N)=O)c3n2)cc(Cl)c1C1CC(O)(CCO)Cc2ccccc21 (stereo not drawn) — inhibition (EGFR; enzyme activity, inhibitor; 10 µM): 0.74%
NC(=O)C[C@H]1CCc2sc3ncnc(O[C@H]4CC[C@H](N5CCOCC5)CC4)c3c21 — inhibition (EGFR; enzyme activity, inhibitor; 10 µM): 15%
Cc1[nH]nc2c1N=C(c1ccccc1Cl)c1cnc(N3CCOCC3)cc1N2 — inhibition (EGFR; 10 µM, human off-target panel): 6%
CN1CCN(Cc2ccc(-c3ccc(CO[C@H]4CCC[C@@H]4NC(=O)c4cc(-c5cnn(C)c5)cnc4N)cc3)cc2)CC1 — inhibition (EGFR; enzyme activity, inhibitor; 0.1 µM): 6%
Cc1ccc(-c2nn(-c3ccc(S(C)(=O)=O)cc3)cc2/C=N/N=C2/NC(=O)CS2)cc1 — inhibition (EGFR (Homo sapiens, UniProt P00533, L858R); kinase activity, inhibitor; 1 µM): 70.5%

Some of these lines once more:
CCn1cc(C(=O)O)c(=O)c2c(N)c(F)c(NC3CCCCC3)cc21 — inhibition (EGFR; kinase activity; 0.1 µM, together with: ATP at Km): 2.2%
CN1CCN(Cc2ccc(-c3ccc(CO[C@H]4CCC[C@@H]4NC(=O)c4cc(-c5cnn(C)c5)cnc4N)cc3)cc2)CC1 — inhibition (EGFR; enzyme activity, inhibitor; 0.1 µM): 6%
